Assay results of several laboratories.
Each line is one published result; not all experiments were run side by side. Several values in a cell are separate wells, animals, samples, runs or records.
Target: Mitogen-activated protein kinase 8 (MAPK8, Homo sapiens, UniProt P45983)
UniProt P45983, sequence (whole entry, looked up): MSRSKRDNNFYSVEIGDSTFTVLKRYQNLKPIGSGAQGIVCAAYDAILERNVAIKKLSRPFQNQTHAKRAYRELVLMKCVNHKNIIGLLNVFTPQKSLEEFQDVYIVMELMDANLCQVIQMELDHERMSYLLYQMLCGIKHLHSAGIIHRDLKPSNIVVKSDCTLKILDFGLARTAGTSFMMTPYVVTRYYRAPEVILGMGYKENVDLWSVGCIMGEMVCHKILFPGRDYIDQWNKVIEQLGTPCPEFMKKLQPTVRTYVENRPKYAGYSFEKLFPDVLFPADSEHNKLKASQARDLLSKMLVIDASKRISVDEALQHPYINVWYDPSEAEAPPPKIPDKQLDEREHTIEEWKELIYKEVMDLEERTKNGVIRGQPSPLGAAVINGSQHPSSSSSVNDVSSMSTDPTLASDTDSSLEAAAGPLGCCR

SMILES	test	setting	how to read	endpoint	result
O=C(Nc1nnc(-c2ccncc2)s1)C(F)(F)Br	binding, isothermal titration calorimetry			ligand efficiency	0.38
C=CC(=O)N1CCC(COCC(=O)N2CCN(c3nc(-c4cnc(N)nc4C(F)F)nc(N4CCOC[C@@H]4C)n3)CC2)CC1	KINOMEscan	1 µM	reference: DMSO control	remaining binding	93%
Cc1cc(NC(=O)c2cccc(NC(=O)/C=C/CN(C)C)c2)ccc1Nc1nccc(-c2cccnc2)n1	enzyme activity, inhibitor	0.06097 µM, 0 h, unit not given, added: GSH 10 mM pre-incubation	reference: vehicle	remaining activity	0.389
O=C(NC1CCC1)c1ccc2nc(-c3cccc(NS(=O)(=O)NCCN4CCCCC4)c3)cn2c1	enzyme activity	10 µM		remaining activity	99%
O=C(Nc1nnc(-c2ccncc2)s1)C(F)(F)I	binding, isothermal titration calorimetry			association constant	95700 M⁻¹ and 105000 M⁻¹ and 99900 M⁻¹
CCCOc1ccc(OC)c(F)c1C(=O)c1ccc(C(=O)N[C@@H]2CNC[C@H]2NC(=O)c2ccc3[nH]ncc3c2)cc1	enzyme activity	10 µM		remaining activity	97%
Cc1cc(-c2cccc(-n3cc(COC(=O)[C@]4(C)C=C(C(=O)OC(C)(C)C)C(=O)CC4)nn3)c2)c(C)c2c1CNCC2	D-peptide binding, inhibitor, FP peptide displacement	0.7812 µM	lower is stronger displacement	fraction bound	0.754
CCN(CC)c1ccc(C2=NNC(=O)CC2C)cc1[N+](=O)[O-] (centres unmarked)	enzyme activity, inhibitor	10 µM	reference: vehicle	remaining activity	121%
C[C@@H](c1ccc(-n2cnc3c(N)ncnc32)cc1)N1CCc2nn(C)c(Cc3ccccc3)c2C1=O	KINOMEscan	0.1 µM	reference: DMSO control	remaining binding	50%
Cc1cc(Nc2cc(N3CCN(C)CC3)nc(Sc3ccc(NC(=O)C4CC4)cc3)n2)[nH]n1	kinase activity, KinaseProfiler	0.03 µM, species human	reference: control	remaining activity	105%
Nc1nnc(-c2ccncc2)s1	binding, isothermal titration calorimetry			ligand efficiency	0.44
C=CC(=O)N1CCC(C(=O)NCC(=O)N2CCN(c3nc(-c4cnc(N)nc4C(F)F)nc(N4CCOCC4)n3)CC2)CC1	KINOMEscan	1 µM		remaining binding	93%
C#CCCOC(=O)[C@]1(C)C=C(C(=O)OC(C)(C)C)C(=O)CC1	D-peptide binding, inhibitor, FP peptide displacement	25 µM	lower is stronger displacement	fraction bound	0.274
O=C(Nc1nnc(-c2ccncc2)s1)C(F)(F)Cl	binding, isothermal titration calorimetry			association constant	53900 M⁻¹
